Results pooled from the literature.
Each line is one published result; not all experiments were run side by side. ± gives the spread as reported.

Structure (SMILES) | assay | system | setting | Cmax
NC(=O)c1cnc2[nH]ccc2c1N[C@@H]1[C@@H]2CC3C[C@H]1C[C@@](O)(C3)C2 |  | Japanese, moderate hepatic impairment, plasma | oral, 150 mg single dose, mean | 674 ng/mL
CC(C)=CCC[C@](C)(O[C@@H]1O[C@H](CO[C@@H]2O[C@H](CO)[C@@H](O)[C@H](O)[C@H]2O)[C@@H](O)[C@H](O)[C@H]1O)[C@H]1CC[C@]2(C)[C@@H]1[C@H](O)C[C@@H]1[C@@]3(C)CC[C@H](O[C@@H]4O[C@H](CO)[C@@H](O)[C@H](O)[C@H]4O[C@@H]4O[C@H](CO)[C@@H](O)[C@H](O)[C@H]4O)C(C)(C)[C@@H]3CC[C@]12C |  | Sprague Dawley rat, male, plasma | oral, 86 mg/kg, in frozen ginseng extract | 6900 ± 1710 ng/mL
O=C(/C=C/c1ccc(O)c2c1[C@H](C(=O)O)[C@@H](c1ccc(O)c(O)c1)O2)O[C@H](Cc1ccc(O)c(O)c1)C(=O)O | UPLC-MS/MS | Wistar rat, microcirculation dysfunction model, plasma | oral, 100 mg/kg Salvia miltiorrhiza stem-leaf extract FT | 13.6 ± 2.25 ng/mL
Cc1cc(Nc2cc3ncccc3c(N[C@@H]3C[C@H]4CC[C@@H](C3)N4CCC#N)n2)n[nH]1 |  | Sprague-Dawley rat, male, plasma | oral, 30 mg/kg/day, last day of 4 weeks | 2.88 ng/mL
CC(C)=CCC[C@](C)(O[C@@H]1O[C@H](CO)[C@@H](O)[C@H](O)[C@H]1O)[C@H]1CC[C@]2(C)[C@@H]1[C@H](O)C[C@@H]1[C@@]3(C)CC[C@H](O[C@@H]4O[C@H](CO)[C@@H](O)[C@H](O)[C@H]4O[C@@H]4O[C@H](CO)[C@@H](O)[C@H](O)[C@H]4O)C(C)(C)[C@@H]3CC[C@]12C |  | Sprague-Dawley rat, plasma | oral, 2000 mg/kg ginseng extract, diet with NUTRIOSE 10% for 2 weeks | 1220 ± 796 ng/mL
O=C(NC[C@H]1CN(c2ccc(N3CCOCC3=O)cc2)C(=O)O1)c1ccc(Cl)s1 |  | Sprague-Dawley rat, male, plasma | oral, 10 mg/kg, added: naringenin 10 mg/kg/day oral, 2 weeks | 509 ± 152 ng/mL
Cc1cc(-c2cc(OC(=O)c3ccccc3)ccc2Cl)cc2nnc(Nc3ccc(OCCN4CCCC4)cc3)nc12 |  | Long Evans rat, plasma | topical, 1% | not detected
C=CC(=O)Nc1cc(Nc2nccc(-c3cn(C)c4ccccc34)n2)c(OC)cc1N(C)CCN(C)C |  | Sprague-Dawley rat, male, plasma | oral, 10 mg/kg, added: avitinib 30 mg/kg daily for 7 days | 85.3 ± 23.9 ng/mL
CN(CCOc1ccc(CC2SC(=O)NC2=O)cc1)c1ccccn1 (centres unmarked) |  | Sprague-Dawley rat, female, plasma | intraperitoneal, 5 mg/kg of dasatinib, added: dasatinib co-dosed | 11400 ± 3790 ng/mL
O=C(O)C[C@H](O)C[C@H](O)/C=C/c1c(C2CC2)nc2ccccc2c1-c1ccc(F)cc1 |  | male Sprague Dawley rat, NASH, plasma | oral, 2.5 mg/kg, geometric mean, added: vehicle | 3.1 µM
COc1ccc(/C=C\c2cc(OC)c(OC)c(OC)c2)cc1OP(=O)(O)O |  | Sprague-Dawley rat male, plasma | intravenous, 28 mg/kg | 50200 ± 12000 ng/mL
CCc1cc2c(cc1N1CCC(N3CCOCC3)CC1)C(C)(C)c1[nH]c3cc(C#N)ccc3c1C2=O |  | healthy subjects, matched to moderate impairment, plasma, total | oral, 300 mg single, fed | 94.3 ng/mL
CC(C)=CCC[C@](C)(O[C@@H]1O[C@H](CO)[C@@H](O)[C@H](O)[C@H]1O)[C@H]1CC[C@]2(C)[C@@H]1[C@H](O)C[C@@H]1[C@@]3(C)CC[C@H](O)C(C)(C)[C@@H]3[C@@H](O[C@@H]3O[C@H](CO)[C@@H](O)[C@H](O)[C@H]3O)C[C@]12C |  | Sprague Dawley rat, male, plasma | oral, 25 mg/kg, in frozen ginseng extract | 500 ± 120 ng/mL
C=CC(=O)N1CCC[C@@H](n2nc(-c3ccc(Oc4ccccc4)cc3)c3c(N)ncnc32)C1 |  | Sprague-Dawley rat, male, brain | oral, 55 mg/kg | 40.4 ng/mL
CC(C)=CCC[C@](C)(O[C@@H]1O[C@H](CO)[C@@H](O)[C@H](O)[C@H]1O)[C@H]1CC[C@]2(C)[C@@H]1[C@H](O)C[C@@H]1[C@@]3(C)CC[C@H](O[C@@H]4O[C@H](CO)[C@@H](O)[C@H](O)[C@H]4O[C@@H]4O[C@H](CO)[C@@H](O)[C@H](O)[C@H]4O)C(C)(C)[C@@H]3CC[C@]12C |  | Sprague-Dawley rat, plasma | oral, 100 mg/kg of parent ginsenoside, control group, no prebiotic | 89 ± 24.3 ng/mL
CCOc1cc([C@@H](CS(C)(=O)=O)N2C(=O)c3cccc(NC(C)=O)c3C2=O)ccc1O[C@@H]1O[C@H](C(=O)O)[C@@H](O)[C@H](O)[C@H]1O |  | moderate renal impairment patients, plasma | oral, 30 mg of apremilast | 192 ng/mL
CCCC[C@H](NC(C)=O)C(=O)N[C@H]1CCC(=O)NC[C@@H](C(=O)N[C@@H](Cc2c[nH]c3ccccc23)C(N)=O)NC(=O)[C@H](CCCNC(=N)N)NC(=O)[C@@H](Cc2ccccc2)NC(=O)[C@H](Cc2c[nH]cn2)NC1=O |  | CD Sprague Dawley rat, male, plasma | subcutaneous, 25.0 mg/kg daily, day 14 | 1140 ng/mL
Cc1nc2cccc(OCC(C)(C)C(=O)NC(C)C)c2c(N)c1C(=O)O |  | female Sprague-Dawley rat, plasma | oral gavage, 10 mg/kg, day 7 | 32.7 ± 9.7 ng/mL

Structure (SMILES) | assay | system | setting | Cmax
O=C(/C=C/c1ccc(O)c(O)c1/C=C/c1ccc(O)c(O)c1)O[C@H](Cc1ccc(O)c(O)c1)C(=O)O | UPLC-MS/MS | Wistar rat, microcirculation dysfunction model, plasma | oral, 100 mg/kg Salvia miltiorrhiza stem-leaf extract FT | 10.5 ± 3.59 ng/mL
CCNCc1cc(Nc2ccnc3cc(Cl)ccc23)ccc1O |  | Wistar rat, plasma | oral, 60 mg/kg amodiaquine, added: myricetin 5 mg/kg i.v. pretreatment | 396 ± 32 ng/mL
Cc1cc(C(=O)NC(C)(C)COc2cccc3c2C(N)=NS(=O)(=O)N3)cc(C)n1 |  | Sprague-Dawley rat, both sexes, plasma | oral, diet, 140 mg/kg, day 91, 13-week dietary study | 222 ng/mL
Cn1nnc2c(C(N)=O)ncn2c1=O |  | male athymic rat, intracranial U87 glioma, tumour extracellular fluid | oral, 50 mg/kg, uncorrected microdialysis, added: before cediranib | 410 ± 150 ng/mL
CCC[C@@]1(CCc2ccccc2)CC(O)=C([C@H](CC)c2cccc(NS(=O)(=O)c3ccc(C(F)(F)F)cn3)c2)C(=O)O1 |  | Sprague Dawley rat, male, plasma | oral, 5 mg/kg, long-chain triglyceride formulation | 1940 ± 204 ng/mL
CC(C)=CCC[C@](C)(O[C@@H]1O[C@H](CO)[C@@H](O)[C@H](O)[C@H]1O)[C@H]1CC[C@]2(C)[C@@H]1[C@H](O)C[C@@H]1[C@@]3(C)CC[C@H](O[C@@H]4O[C@H](CO)[C@@H](O)[C@H](O)[C@H]4O)C(C)(C)[C@@H]3CC[C@]12C |  | Sprague-Dawley rat, plasma | oral, 100 mg/kg of parent ginsenoside, control group, no prebiotic | 20.3 ± 6.35 ng/mL
C=C1[C@H](CO)[C@@H](O)C[C@@H]1n1cnc2c(=O)[nH]c(N)nc21 |  | male Sprague-Dawley rat, plasma | oral, 1 mg/kg, added: CdG 1 mg/kg | 62.6 ± 11.9 ng/mL
CCCCCCCC/C=C\CCCCCCCC(=O)N[C@H](CCCCN)C(=O)O.Cl |  | Sprague-Dawley rat male, brain | intraperitoneal, 27.5 mg/kg, total bound plus unbound | ~4.5 µM
CCN1CCN(c2ccc(Nc3cc(N(C)C(=O)Nc4c(Cl)c(OC)cc(OC)c4Cl)ncn3)cc2)CC1 | LC-MS/MS | juvenile male Crl:WI(Han) rats, plasma | oral gavage, 0.1 mg/kg/day, postnatal day 17 | 2.99 ng/mL
C=C(c1ccc(C(=O)O)cc1)c1cc2c(cc1C)C(C)(C)CCC2(C)C |  | male Sprague-Dawley rats, plasma | oral, 100 mg/kg, sesame oil vehicle | 8520 ng/mL
CC(C)=CCC[C@](C)(O[C@@H]1O[C@H](CO)[C@@H](O)[C@H](O)[C@H]1O)[C@H]1CC[C@]2(C)[C@@H]1[C@H](O)C[C@@H]1[C@@]3(C)CC[C@H](O[C@@H]4O[C@H](CO)[C@@H](O)[C@H](O)[C@H]4O[C@@H]4O[C@H](CO)[C@@H](O)[C@H](O)[C@H]4O)C(C)(C)[C@@H]3CC[C@]12C |  | Sprague Dawley rats, male, plasma | oral, 42 mg/kg, aqueous solution, added: co-dosed pure ginsenoside mixture | 800 ± 150 ng/mL
O=C(O)Cc1ccccc1Nc1c(Cl)cccc1Cl |  | rat, plasma | oral, 10 mg/kg, added: sesamin 10 mg/kg | 3500 ± 2300 ng/mL
CS(=O)(=O)c1ccc(-c2cnc(N)c(-c3ccc(C(F)(F)F)nc3)c2)cc1 |  | Sprague-Dawley rat, pregnant female, plasma | oral, 30 mg/kg/day, gestation day 6 | 9120 ng/mL
O=C(O)/C=C/c1ccc(O)c(O)c1 | UPLC-MS/MS | Wistar rat, microcirculation dysfunction model, plasma | oral, 100 mg/kg Salvia miltiorrhiza stem-leaf extract FT | 4.9 ± 0.19 ng/mL
CC(C)=CCC[C@](C)(O[C@@H]1O[C@H](CO)[C@@H](O)[C@H](O)[C@H]1O)[C@H]1CC[C@]2(C)[C@@H]1[C@H](O)C[C@@H]1[C@@]3(C)CC[C@H](O)C(C)(C)[C@@H]3[C@@H](O[C@@H]3O[C@H](CO)[C@@H](O)[C@H](O)[C@H]3O[C@@H]3O[C@@H](C)[C@H](O)[C@@H](O)[C@H]3O)C[C@]12C |  | Sprague Dawley rat, male, plasma | oral, 45 mg/kg, in frozen ginseng extract | 500 ± 120 ng/mL
O=C(/C=C/c1ccc(O)c(O)c1)O[C@H](Cc1ccc(O)c(O)c1)C(=O)O | UPLC-MS/MS | Wistar rat, microcirculation dysfunction model, plasma | oral, 100 mg/kg Salvia miltiorrhiza stem-leaf extract FS | 75.3 ± 8.79 ng/mL
C=CC(N)CCC(=O)O (centres unmarked) |  | male Sprague-Dawley rat, plasma | oral, 1.0 mg/kg, formulation 6, added: BCH 200 mg/kg | 1220 ± 73 ng/mL

Excerpt of the above:
Structure (SMILES) | assay | system | setting | Cmax
Cc1cc(-c2cc(OC(=O)c3ccccc3)ccc2Cl)cc2nnc(Nc3ccc(OCCN4CCCC4)cc3)nc12 |  | Long Evans rat, plasma | topical, 1% | not detected
O=C(O)/C=C/c1ccc(O)c(O)c1 | UPLC-MS/MS | Wistar rat, microcirculation dysfunction model, plasma | oral, 100 mg/kg Salvia miltiorrhiza stem-leaf extract FT | 4.9 ± 0.19 ng/mL
